# Results of several laboratories.
# Protocols differ between the studies behind these lines. Numbers after ± are the reported error.
SMILES,target or system,assay,system,conditions,scale,endpoint,result
CCCC[C@H](NC(=O)CNC(=O)CNC(=O)[C@H](CCCCNC(=O)[C@H](CC(=O)O)NC(=O)C(C)c1ccc(CC(C)C)cc1)NC(=O)CN1CCN(CC(=O)O)CCN(CC(=O)O)CCN(CC(=O)O)CC1)C(=O)N[C@H]1CC(=O)NCCCC[C@@H](C(N)=O)NC(=O)[C@H](Cc2c[nH]c3ccccc23)NC(=O)[C@H](CCCNC(=N)N)NC(=O)[C@@H](Cc2ccccc2)NC(=O)[C@H](Cc2c[nH]cn2)NC1=O (stereo partly shown) [lutetium-177 labelled],,,"C57 mouse, intestines","intravenous, 0.037 MBq, 0.5 h",,tissue uptake,1.76 ± 0.59 %ID
O=C1C2CC3CC1CC(C(=O)N1CCN(c4ccc([N+](=O)[O-])c5ncccc45)CC1)(C3)C2,Salmonella typhimurium,Ames test,TA98,"0.05 µg/well, with S9",baseline: vehicle,revertant fold increase,1.3
N#C[C@@H]1CC(F)(F)CN1C(=O)CNC(=O)c1ccnc2c(NC(=O)[C@H](CCCCNC(=O)CCOCCOCCOCCOCCOCCOCCNC(=O)CN3CCN(CC(=O)[O-])CCN(CC(=O)[O-])CCN(CC(=O)[O-])CC3)NC(=O)CCCc3ccc(I)cc3)cccc12.[177Lu+3],,,"mouse, U-87 MG tumour xenograft, salivary gland",24 h,,tissue uptake,3.38 ± 1.02 %ID/g
CNC(=O)C1CCCN(C(=O)C2CC3CCC2N3C(=O)[C@@H]2C[C@@H](O)CN2C(=O)NCc2cccc(Cl)c2F)C1 (mixture of isomers),CYP3A4 (human),"inhibitor, time-dependent inhibition",,"0.0686 µM, preincubated with NADPH, with: testosterone substrate",baseline: negative control,remaining activity,96.9%
COc1cccc(OC)c1-c1cc(C(=O)NC2(C(=O)O)C3CC4CC(C3)CC2C4)nn1-c1ccc(C(=O)N(C)CCOCCOCCN(C)C(=O)[C@H](CCCCNC(=O)[C@H](CC(C)C)NC(=O)C2OC2C(=O)O)NC(=O)CN2CCN(CC(=O)[O-])CCN(CC(=O)[O-])CCN(CC(=O)[O-])CC2)cc1C(C)C.[177Lu+3] (mixture of isomers),,,"mouse, HT-29 xenograft, lung",168 h post injection,,tissue uptake,0.6 %ID/g
C=CC(=O)Nc1cccc(Cn2ncc3cnc(Nc4cnn(CCOC)c4)nc32)c1,ULK1 human,"binding, KINOMEscan",,100 nM,lower = stronger binding,percent of control,63%
COc1cccc(OC)c1-c1cc(C(=O)NC2(C(=O)O)C3CC4CC(C3)CC2C4)nn1-c1ccc(C(=O)N(C)CCOCCN(C)C(=O)[C@H](CCCCNC(=O)[C@H](CC(C)C)NC(=O)C2OC2C(=O)O)NC(=O)CN2CCN(CC(=O)[O-])CCN(CC(=O)[O-])CCN(CC(=O)[O-])CC2)cc1C(C)C.[177Lu+3] (mixture of isomers),,,"mouse, HT-29 xenograft, heart",72 h post injection,,tissue uptake,0.14 %ID/g
O=C(O)CCCOc1ccc([18F])cc1-c1cc(-c2ccccc2C(F)(F)F)n(-c2ccccc2)n1,,,"mouse, small intestine","intravenous, dose not given, 180 min",,tissue uptake,5.53 ± 0.62 %ID/g
O=C(NCC1OC2CCC=CCCC2O1)c1ccc(COCCOCCOCC[18F])cc1 (stereo not shown),,,"healthy female BALB/c nude mice, pancreas","intravenous, 7.4 MBq per mouse, 60 min",,tissue uptake,1.3 ± 1.2 %ID/g
N#C[C@@H]1CC(F)(F)CN1C(=O)CNC(=O)c1ccnc2c(NC(=O)[C@@H](N)CCCCNC(=O)CCOCCOCCOCCOCCOCCOCCNC(=O)CN3CCN(CC(=O)[O-])CCN(CC(=O)[O-])CCN(CC(=O)[O-])CC3)cccc12.[177Lu+3],,,"mouse, U-87 MG tumour xenograft, spleen",48 h,,tissue uptake,0.05 ± 0.01 %ID/g
Cc1ncsc1-c1ccc(C(C)NC(=O)C2CC(O)CN2C(=O)C(NC(=O)CCCCCCCCCCN2CCCC(Nc3ncc(Cl)c(Nc4ccccc4S(=O)(=O)C(C)C)n3)C2)C(C)(C)C)cc1 (stereo not shown),22Rv1,"RNA-seq, measured: ZNF382 mRNA",,concentration not given,baseline: DMSO,log2 fold change,-2.4
Cc1nn(-c2cccc(N)c2)c(=O)c2cnc(Nc3ccc(N4CCNCC4)cc3)nc12,"DYRK1A (Homo sapiens, UniProt Q13627)","enzyme activity, inhibitor",,,,IC50,> 10 µM
COc1cccc(OC)c1-c1cc(C(=O)NC2(C(=O)O)C3CC4CC(C3)CC2C4)nn1-c1ccc(C(=O)NCCNC(=O)[C@H](CCCCNC(=O)[C@H](CC(C)C)NC(=O)C2OC2C(=O)O)NC(=O)CN2CCN(CC(=O)[O-])CCN(CC(=O)[O-])CCN(CC(=O)[O-])CC2)cc1C(C)C.[177Lu+3] (mixture of isomers),,,"mouse, HT-29 xenograft, muscle",4 h post injection,,tissue uptake,0.8 %ID/g
[123I]c1ccc2nc(-c3ccc(-n4ccnn4)nc3)cn2c1,,,"Wistar rat, male, red marrow","intravenous, 4 MBq, 30 min",,tissue uptake,0.179 ± 0.188 %ID/g
O=C(NCC1OC2CCC=CCCC2O1)c1ccc([18F])nc1 (stereo not shown),,,"healthy female BALB/c nude mice, lungs","intravenous, 7.4 MBq per mouse, 120 min",,tissue uptake,0.5 ± 0.03 %ID/g
COC1CN([C@H]2CC[C@H]([C@@]3(C)Oc4c(Cl)cc(C(=O)NCc5c(SC)cc(C)[nH]c5=O)c(C)c4O3)CC2)C1,,"RNA-seq, measured: PPM1E mouse homolog","mouse, HT-1376 xenograft, whole blood",dose not given,baseline: vehicle,log2 fold change,0.397
CC(C)Cc1ccc(C(C)C(=O)N[C@@H](CCCCNC(=O)CCOCCOCCOCCOCCOCCOCCNC(=O)CN2CCN(CC(=O)[O-])CCN(CC(=O)[O-])CCN(CC(=O)[O-])CC2)C(=O)Nc2cccc3c(C(=O)NCC(=O)N4CC(F)(F)C[C@H]4C#N)ccnc23)cc1.[177Lu+3] (stereo partly shown),,,"mouse, U-87 MG tumour xenograft, brain",1 h,,tissue uptake,0.43 ± 0.15 %ID/g
COc1ccc2c(c1)C(C)(C)C(/C=C/C1=C(Oc3ccc(C(=O)NCCCCOc4cc(CN(Cc5ccccn5)Cc5ccccn5)cc(CN(Cc5ccccn5)Cc5ccccn5)c4)cc3)C(=C/C=C3/N(CCCCS(=O)(=O)[O-])c4ccc(OC)cc4C3(C)C)CCC1)=[N+]2CCCCS(=O)(=O)[O-].O=[N+]([O-])[O-].O=[N+]([O-])[O-].[99Tc+].[C-]#[O+].[C-]#[O+].[C-]#[O+].[Zn+2],,,"BALB/c mice, S. aureus myositis, heart",12 h post-injection,,tissue uptake,1.9 %ID/g
COc1ccc(Nc2nc(Nc3ccc(OCCOCC[18F])cc3)ncc2Br)cc1,,,"ICR mice, S180 tumour, stomach","intravenous, 370 kBq, 5 min",,tissue uptake,0.47 ± 0.08 %ID
C=C(NC(=O)c1csc(-c2nc3c(cc2O)-c2nc(cs2)C(=O)NC(C(C)O)C(=O)NC(=C(C)OC)c2nc(cs2)C(=O)NC2c4nc(cs4)C(=O)NC(COC(=O)c4c5c6c(cccc6n4O)COC(=O)C(OC4CC(C)(O)C(N(C)C)C(C)O4)C2OC5)c2nc-3cs2)n1)C(N)=O (stereo not shown),,,"ICR mice, Streptococcus pneumoniae ATCC 49169 infected, immunocompromised, blood","intravenous, 8 mg/kg/day once daily",,Tmax,4.8 min
CCCC[C@H](NC(=O)CCCCCCCNC(=O)CN1CCN(CC(=O)O)CCN(CC(=O)O)CC1)C(=O)N[C@H]1CC(=O)NCCCC[C@@H](C(N)=O)NC(=O)[C@H](Cc2c[nH]c3ccccc23)NC(=O)[C@H](CCCNC(=N)N)NC(=O)[C@@H](Cc2ccccc2)NC(=O)[C@H](Cc2c[nH]cn2)NC1=O [fluorine-18 labelled],,,"C57 mice, B16/F10 melanoma, intestines","intravenous, 0.37 MBq, 2 h",,tissue uptake,1.54 ± 0.04 %ID
Cc1cc(C)n(CCN(CCN)CCCCCCNC(=O)[C@@H](N)Cc2c[nH]cn2)n1.[99Tc+].[C-]#[O+].[C-]#[O+].[C-]#[O+],,,"BALB/c nude mice, MCF7 xenograft, stomach","intravenous, 15 min",,tissue uptake,0.86 ± 0.02 %IA/g
COc1cccc(OC)c1-c1cc(C(=O)NC2(C(=O)O)C3CC4CC(C3)CC2C4)nn1-c1ccc(C(=O)N(C)CCCN(C)C(=O)[C@H](CCCCNC(=O)[C@H](CC(C)C)NC(=O)C2OC2C(=O)O)NC(=O)CN2CCN(CC(=O)[O-])CCN(CC(=O)[O-])CCN(CC(=O)[O-])CC2)cc1C(C)C.[177Lu+3] (mixture of isomers),,,"mouse, HT-29 xenograft, liver",24 h post injection,,tissue uptake,0.82 %ID/g
O=C(Nc1cnccc1-c1ccc([18F])nc1)c1ccnc(NC(=O)C2CC2)c1,,PET imaging,"FVB/NJ mice, both sexes, liver","intravenous, 120 min",,median SUV,6.02
[11CH3]N1CCC(NC(=O)c2cc(-c3c(O)cc(O)cc3Oc3ccc([N+](=O)[O-])cc3)on2)CC1,,,"Wistar rat, female, healthy, kidneys","intravenous, 10 min",,tissue uptake,9.6 ± 1.4 %ID

# A few entries again:
SMILES,target or system,assay,system,conditions,scale,endpoint,result
Cc1ncsc1-c1ccc(C(C)NC(=O)C2CC(O)CN2C(=O)C(NC(=O)CCCCCCCCCCN2CCCC(Nc3ncc(Cl)c(Nc4ccccc4S(=O)(=O)C(C)C)n3)C2)C(C)(C)C)cc1 (stereo not shown),22Rv1,"RNA-seq, measured: ZNF382 mRNA",,concentration not given,baseline: DMSO,log2 fold change,-2.4
COc1cccc(OC)c1-c1cc(C(=O)NC2(C(=O)O)C3CC4CC(C3)CC2C4)nn1-c1ccc(C(=O)N(C)CCOCCOCCN(C)C(=O)[C@H](CCCCNC(=O)[C@H](CC(C)C)NC(=O)C2OC2C(=O)O)NC(=O)CN2CCN(CC(=O)[O-])CCN(CC(=O)[O-])CCN(CC(=O)[O-])CC2)cc1C(C)C.[177Lu+3] (mixture of isomers),,,"mouse, HT-29 xenograft, lung",168 h post injection,,tissue uptake,0.6 %ID/g
COc1cccc(OC)c1-c1cc(C(=O)NC2(C(=O)O)C3CC4CC(C3)CC2C4)nn1-c1ccc(C(=O)NCCNC(=O)[C@H](CCCCNC(=O)[C@H](CC(C)C)NC(=O)C2OC2C(=O)O)NC(=O)CN2CCN(CC(=O)[O-])CCN(CC(=O)[O-])CCN(CC(=O)[O-])CC2)cc1C(C)C.[177Lu+3] (mixture of isomers),,,"mouse, HT-29 xenograft, muscle",4 h post injection,,tissue uptake,0.8 %ID/g
